Measurements collected from several papers.
Lines come from different studies, so protocols differ.
Target: Glycogen synthase kinase-3 beta (GSK3B, Homo sapiens, UniProt P49841)
Sequence of UniProt P49841 (whole entry, looked up): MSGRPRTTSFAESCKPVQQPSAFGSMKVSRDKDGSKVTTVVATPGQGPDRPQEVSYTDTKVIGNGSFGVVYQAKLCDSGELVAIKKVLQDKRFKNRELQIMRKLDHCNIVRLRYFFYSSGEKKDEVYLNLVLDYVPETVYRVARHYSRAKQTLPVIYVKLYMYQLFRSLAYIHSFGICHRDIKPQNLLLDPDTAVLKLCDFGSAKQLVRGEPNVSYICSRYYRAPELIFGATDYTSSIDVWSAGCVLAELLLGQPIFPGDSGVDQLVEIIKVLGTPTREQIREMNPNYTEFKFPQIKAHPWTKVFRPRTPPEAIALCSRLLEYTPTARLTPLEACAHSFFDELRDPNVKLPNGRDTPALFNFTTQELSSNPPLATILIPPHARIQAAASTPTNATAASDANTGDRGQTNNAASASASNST

Structure (SMILES)	observed	action	method	notes	endpoint	value
COc1ccc2c(c1)N(C1=C(c3ccccc3)C(=O)NC1=O)CC2	enzyme activity	inhibitor			IC50	13.1 µM
O=C(Nc1c[nH]nc1C(=O)NC1CCNCC1)c1cc(F)cc(F)c1	target engagement in cells		BRET		IC50	0.035 µM
Cn1ncc2cc(-c3cncc(Cl)c3N3CCC4(CCNC4=O)CC3)ccc21	cell-free assay			lysate	Kd	1.66 µM
CCn1cc(C(=O)O)c(=O)c2c(N)c(F)c(NC3CCCCC3)cc21	enzyme activity	inhibitor			IC50	0.0082 µM
Cc1nn(-c2cccc(N)c2)c(=O)c2cnc(Nc3ccc(N4CCNCC4)cc3)nc12	enzyme activity	inhibitor			IC50	1.9 µM
COc1ccc(N(C)C2=C(c3ccccc3)C(=O)NC2=O)cc1	enzyme activity	inhibitor			IC50	30.3 µM
Cc1cc(C)c(S(=O)(=O)N(CC(=O)O)c2ccc(Nc3ccnc(N4CCCC4)n3)cc2)c(C)c1	enzyme activity	inhibitor			IC50	> 100 µM
CC1Cc2ccccc2N1C1=C(c2ccccc2)C(=O)NC1=O (stereo not drawn)	enzyme activity	inhibitor			IC50	4.53 µM
CCN(CC)CC(=O)Nc1cccc(-n2cc(-c3ccc4ccc(-c5cn(-c6cccc(NC(=O)CN(CC)CC)c6)nn5)cc4c3)nn2)c1	enzyme activity	inhibitor			IC50	> 10 µM

For quick reference, copied from above:
Structure (SMILES)	observed	action	method	notes	endpoint	value
CC1Cc2ccccc2N1C1=C(c2ccccc2)C(=O)NC1=O (stereo not drawn)	enzyme activity	inhibitor			IC50	4.53 µM
